{"data": "Published values of several laboratories", "note": "A part holds a random share of what one study measured."}
{"data": "Set 1", "target": "Interferon regulatory factor 7, full length, phosphomimetic (IRF7, Homo sapiens, UniProt Q92985, residues 1-503, S471D/S472D/S475D/S476D/S477D/S483D/S484D/S487D)", "method": "protein-binding microarray", "molecule type": "double-stranded DNA, one strand shown", "sample": "in vitro", "tested at": "2200 nM top", "notes": "60-bp whole probe", "together with": "salmon DNA 0.4 mg/ml", "reference": "random background probes", "direction": "higher = stronger binding", "all sequences stand within": "GCCTAGCAC … GTCTTGATTCGCTTGACGCTGCTG", "sequence of UniProt Q92985 (whole entry, unmodified, looked up)": "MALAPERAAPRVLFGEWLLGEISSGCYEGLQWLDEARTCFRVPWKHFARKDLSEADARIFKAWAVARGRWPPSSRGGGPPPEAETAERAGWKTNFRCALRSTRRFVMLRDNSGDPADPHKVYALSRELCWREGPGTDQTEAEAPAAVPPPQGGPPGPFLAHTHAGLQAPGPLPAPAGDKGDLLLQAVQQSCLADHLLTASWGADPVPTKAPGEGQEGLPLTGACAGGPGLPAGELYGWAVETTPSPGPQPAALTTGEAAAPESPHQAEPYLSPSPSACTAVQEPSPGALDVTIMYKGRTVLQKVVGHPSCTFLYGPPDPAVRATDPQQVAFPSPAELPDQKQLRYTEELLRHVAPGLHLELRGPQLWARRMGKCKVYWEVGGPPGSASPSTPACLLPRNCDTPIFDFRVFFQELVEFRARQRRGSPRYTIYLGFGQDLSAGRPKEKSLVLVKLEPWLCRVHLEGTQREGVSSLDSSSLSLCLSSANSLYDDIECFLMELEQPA"}
{"Sequence": "CTCTGTTTATGTCTGGGTATGTGCTAG", "fitted relative affinity": "1.93 z-score"}
{"Sequence": "TTGTGTCAACTTTCTCTGCTCGTGCTA", "fitted relative affinity": "0.918 z-score"}
{"Sequence": "TCAAGTTTCCATTTTCAACTGTGCTAG", "fitted relative affinity": "4.88 z-score"}
{"Sequence": "TTAGGACTGTGGTTTCGGTTAGTGCTA", "fitted relative affinity": "4.74 z-score"}
{"Sequence": "ATCGATTTCTTCCCTGTGAAAGTGCTA", "fitted relative affinity": "1.87 z-score"}
{"Sequence": "GACGGTATCGACTCTCGGGACGTGCTA", "fitted relative affinity": "0.23 z-score"}
{"Sequence": "TTAGGTATCGGCTATCGGTTAGTGCTA", "fitted relative affinity": "0.342 z-score"}
{"Sequence": "TTAGGTATCCTACTGCTTGAGTGCTAG", "fitted relative affinity": "0.585 z-score"}
{"Sequence": "GACGGTATCGGTATAGGGACGTGCTAG", "fitted relative affinity": "0.17 z-score"}
{"Sequence": "GACGGTTTCGGACTGGGTACGTGCTAG", "fitted relative affinity": "3.81 z-score"}
{"Sequence": "TTAGGTAACGACACTGGGTTAGTGCTA", "fitted relative affinity": "-0.561 z-score"}
{"Sequence": "CACGGTCTCGGACTGGGGACGTGCTAG", "fitted relative affinity": "-0.364 z-score"}
{"Sequence": "TTCGGTTTCGGGACTGGGTTAGTGCTA", "fitted relative affinity": "5.77 z-score"}
{"Sequence": "TCACAGTTTAATATCTAACTGTGCTAG", "fitted relative affinity": "0.589 z-score"}
{"Sequence": "TTAGGTCTCCTTTTACTTTAGTGCTAG", "fitted relative affinity": "1.3 z-score"}
{"Sequence": "GACGATATCGGGACGGGAGACGTGCTA", "fitted relative affinity": "-0.277 z-score"}
{"Sequence": "TCATTTCTCATTCGTCATACTGTGCTA", "fitted relative affinity": "3.14 z-score"}
{"Sequence": "TTAGATATCGGATATCGATTAGTGCTA", "fitted relative affinity": "-0.0414 z-score"}
{"Sequence": "TTATATATCGGGTATCGATTAGTGCTA", "fitted relative affinity": "0.382 z-score"}
{"Sequence": "GTCGATTTCAGTCTCGAGACGTGCTAG", "fitted relative affinity": "1.66 z-score"}
{"Sequence": "ATCTCTGTCCGTGCTCAGCTCGTGCTA", "fitted relative affinity": "1.04 z-score"}
{"Sequence": "TTAGGAATGGGGTTTCGGTTAGTGCTA", "fitted relative affinity": "3.27 z-score"}
{"Sequence": "GACGGTTTCGGGTTTCGGAACGTGCTA", "fitted relative affinity": "9.63 z-score"}
{"data": "Set 2", "target": "Histone acetyltransferase KAT6A, winged helix 2, GST fusion (KAT6A, Homo sapiens, UniProt Q92794, residues 85-181)", "method": "protein binding microarray", "molecule type": "double-stranded DNA, one strand shown", "sample": "in vitro", "tested at": "not given", "notes": "8-mer, flanks averaged, mean of 2 arrays, mostly near background", "reference": "not given", "direction": "higher = stronger binding", "Target sequence (chain)": "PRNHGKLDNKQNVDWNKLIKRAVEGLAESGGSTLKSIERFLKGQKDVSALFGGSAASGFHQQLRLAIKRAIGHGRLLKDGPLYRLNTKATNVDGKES"}
{"Sequence": "ACGCTCCG", "E-score": -0.0206}
{"Sequence": "AAATTTCT", "E-score": 0.041}
{"Sequence": "CGAGAGTC", "E-score": -0.0233}
{"Sequence": "CAAAATTA", "E-score": 0.218}
{"Sequence": "CATGGCAG", "E-score": 0.155}
{"Sequence": "AACAATAC", "E-score": -0.0167}
{"Sequence": "AGCTCTCG", "E-score": -0.00954}
{"Sequence": "CAACGGTG", "E-score": -0.256}
{"Sequence": "TATGAAGA", "E-score": 0.095}
{"Sequence": "CATCGATA", "E-score": -0.0191}
{"Sequence": "CCATGGTA", "E-score": -0.139}
{"Sequence": "CAATGGCA", "E-score": 0.0744}
{"Sequence": "GCCAGCGA", "E-score": 0.116}
{"Sequence": "ATTGCGTG", "E-score": 0.00284}
{"Sequence": "CAGTGACC", "E-score": 0.0944}
{"Sequence": "AACACGCT", "E-score": -0.0414}
{"data": "Set 3", "target": "Ras GTPase-activating protein-binding protein 1, full length (G3BP1, Homo sapiens, UniProt Q13283)", "method": "RNA Bind-n-Seq", "molecule type": "RNA", "sample": "in vitro", "tested at": "200 nM", "notes": "whole 134-nt RNA, ends assumed", "together with": "150 mM LiCl", "reference": "input library", "direction": "higher = stronger binding", "each molecule": "7-deaza-guanosine replaces G", "all sequences stand within": "GGGAGUUCUACAGUCCGACGAUC … UGGAAUUCUCGGGUGUCAAGG", "sequence of UniProt Q13283 (whole entry, looked up)": "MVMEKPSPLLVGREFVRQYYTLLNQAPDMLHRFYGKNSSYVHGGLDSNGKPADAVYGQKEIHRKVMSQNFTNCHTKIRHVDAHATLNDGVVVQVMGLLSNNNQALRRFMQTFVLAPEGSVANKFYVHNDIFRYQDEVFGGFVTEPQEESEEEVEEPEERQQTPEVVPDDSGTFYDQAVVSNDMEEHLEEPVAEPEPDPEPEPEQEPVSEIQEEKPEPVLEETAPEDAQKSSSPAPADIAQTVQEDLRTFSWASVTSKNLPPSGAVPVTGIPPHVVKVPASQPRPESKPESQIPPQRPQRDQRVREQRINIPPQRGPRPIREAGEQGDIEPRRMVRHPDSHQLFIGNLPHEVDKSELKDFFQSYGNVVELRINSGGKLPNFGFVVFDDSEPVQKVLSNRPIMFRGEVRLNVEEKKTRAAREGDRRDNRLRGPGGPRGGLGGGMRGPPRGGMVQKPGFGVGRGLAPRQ"}
{"Sequence": "GGAUCAAAGCAAGUUGGAGAAACAUCAGCACCUGGAGACACCUUAGAUGGCACACCUCGUACUCUCAAUACUGUCUUUGAUUUCCCACCA", "log2 enrichment": 0.406}
{"Sequence": "ACCAUGCAGGUGGGCAUCUUAAAGAAGUGGGGCAAGGGGGGGAUAGGGAGGGGGGUAACACUUUGGGAACAGGUGGUCCCAGGUCGUUUC", "log2 enrichment": 0.24}
{"Sequence": "CCUCAAGUCCUGUGCUACACAUCGUAUGUACCGAAUCGGUUUGGAAAGGAGGAAAGUAUUAUGUUACGCCGUUCGGAUCUGCACUUCCAG", "log2 enrichment": 0.0293}
{"Sequence": "UCCUGUGCUACACAUCGUAUGUACCGAAUCGGGGUUUUUGGGUUUUUGGGUUUUUGGGGAAAGUAUUAUGUUACGCCGUUCGGAUCUGCA", "log2 enrichment": -0.0559}
{"Sequence": "CCUGUGCUACACAUCGUAUGUACCGAAUCAAAUUUUUAAAUUUUUUUAAACCCCCCCAAAAAAGUAUUAUGUUACGCCGUUCGGAUCUGC", "log2 enrichment": 1.26}
{"Sequence": "ACCAUGCAGGUGGGCAUCUUUGGGAAGUGGGGCAAGGGGGGGAUAGGGAGGGGGGUAACACUUUGGGAACAAGUGGUCCCAGGUCGUUUC", "log2 enrichment": 0.241}
{"Sequence": "ACCAUGCAGGUGGGCAUCUUUGGGAAGUGGGGCAAGGGGGGGAUAGGGAGGAGGGUAACACUUUGGGAACAGGUGGUCCCAGGUCGUUUC", "log2 enrichment": 0.352}
{"Sequence": "CAAGUCCUGUGCUACACAUCGUAUGUACCGAAUCGGGUUUGGGAGGGAAAAAGGGAAAGUAUUAUGUUACGCCGUUCGGAUCUGCACUUC", "log2 enrichment": -0.184}
{"Sequence": "AAACUUUAGAGGAGGAUCUGAUGGAUAUGGCAGUGGACGUGGAUUUGGGGAUGGCUAUAAUGGGUAUGGAGGAGGACCUGGAGGUGGCAA", "log2 enrichment": -0.18}
{"Sequence": "GUCCUGUGCUACACAUCGUAUGUACCGAAUCGGGCCCCCGGGCCCCCGGCCCCCGGGGAAAGUAUUAUGUUACGCCGUUCGGAUCUGCAC", "log2 enrichment": -0.578}
{"Sequence": "AAGUCCUGUGCUACACAUCGUAUGUACCGAAUCGGUUUUUUUGGAAAAAGGUUUGGAAAGUAUUAUGUUACGCCGUUCGGAUCUGCACUU", "log2 enrichment": -3.27}
{"data": "Set 4", "target": "RNA binding protein fox-1 homolog 2, RRM domain, GST-SBP tag (RBFOX2, Homo sapiens, UniProt O43251-10, residues 100-194)", "method": "RNA Bind-n-Seq", "molecule type": "RNA", "sample": "in vitro", "tested at": "365 nM", "notes": "natural RNA segment, single round, ends assumed", "reference": "no-protein control", "direction": "higher = stronger binding", "all sequences stand within": "GGGAGUUCUACAGUCCGACGAUC … UGGAAUUCUCGGGUGCCAA", "Construct (chain)": "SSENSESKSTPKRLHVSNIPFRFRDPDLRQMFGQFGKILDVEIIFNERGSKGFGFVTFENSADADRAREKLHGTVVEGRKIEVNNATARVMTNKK"}
{"Sequence": "UGUGGUCAGCCUUACCCCUUCUCCGAGAACAAGCAGAGCGCUCUAUUUUUAACUAUGUUACACUCGUAAAUGACAAAACCAAAUCUUCUAUUAAAAGGCAAAGAUGAUGG", "RBNS enrichment (R)": 0.371}
{"Sequence": "CUGAUGCCCAUGUUCCAGAGGAAUUCGGAUACCACAAACAGCUAAGACAAUCUCAGCUUUUCUUAGACAAUCUUCUAUCUCAAACUUCAGACAUUCCAGAAUUGUCAUGA", "RBNS enrichment (R)": 0.483}
{"Sequence": "GACAAUGGGGACAUUGUUGGUAGCUGUUCGGUAGAUGCUCUUUGCUAUUUAUAAGUGACUUUAAACCUUCUCUUGGCUGUUAAGAAAUGUGUUCUAGAUUUAGCUAUUUA", "RBNS enrichment (R)": 0.708}
{"Sequence": "AGGCGGUAGCUGGUUCCCAUGCUCCAGGAUGGAGGUGGCAGCUGCCCUGCCAUCCCUUCUGUCUGCCAUGAGAGGGACUCUCUGAGUGUCGCCUGGCCCCACGUGUGGUG", "RBNS enrichment (R)": 0.385}
{"Sequence": "GAUAAUUUGUUAGCUGGAACCUAUUCACUUCCGAGAUUCAGACAUAGCCAUGCUGGUGGCCUUCUGAAUCACUGCAUGGAUGUCCCAGGAGGCAGCUCUCCCCACACAGC", "RBNS enrichment (R)": 1.31}
{"Sequence": "UAUUCCCUUAGGACAGAAAAUUGCAUGUGAGGUGGGAUAAUCGAGUUUCAGUGACCCACGUCAGUUACACAUUAAAGCCAGACCCCAUGAUAAAAUUCCACAAAAUGGAA", "RBNS enrichment (R)": 3.55}
{"Sequence": "AGACUUGAGGUCCCCACCCAGGCCAAGCCGGCCCCCCGUACCCCUUGCCUGGGAGCAAACCGCCAGGACGCAGCCUCCACGCCGCACCUGCCACAUUCAGCCCUGCCCAG", "RBNS enrichment (R)": 0.357}
{"Sequence": "UUUGGGGUGCAAAUGCUAAUGUCAAACUUGAGUCACAAAGAACAUGUAGAAAACAAAAUGGAUAAAAUCUGAUAUGUAUUGUUUGGGAUCCUAUUGAACCAUGUUUGUGG", "RBNS enrichment (R)": 7.69}
{"Sequence": "GCUCAUGAGCUGGUCUAAUGCAGUCACAUUGGUGCUGAGCUGCCCAGGACCCUGGGACAUAGAUAAAGCCCGCCUCCAGUCCCUGGGUGCUGGAACAGAUUGUCUGGGAG", "RBNS enrichment (R)": 0.497}
{"Sequence": "UUCUGAAGAAUGAGUUUGUUUGCAAUUUGUAAGUGAAACUGAAUUAUGGGUACAUUCAAGACAAGAGUGUUCCAUUGACUGCAGCUAUCCAAGGACCGCCUGUUCAUAAG", "RBNS enrichment (R)": 0.787}
{"Sequence": "GUUGAAUUUUGAUUUGUCCUUGGUGGACAACUGGCUUUACCCAGUGAAGAGGGCCAGGACAGAUUGGACAGCUUAUUUCUCUAUAGCAAGUAAAAGCGUUAUGUUACAGU", "RBNS enrichment (R)": 0.396}
{"Sequence": "UCAGUGCUUCACAGUGAAGGGAAAAAAGCCUAGACAAACAUUUUGUCAGAACCUUGCAAUAAGCCAAGGUAUUACCAGUAAAUUGGUUGUAUAUACAAUAAAAUUGCACC", "RBNS enrichment (R)": 0.623}
{"data": "Other studies, line by line"}
{"Molecule": "PSACRNLFGPVDH", "target": "human cyclin D2", "test": "cyclin docking binding, deep mutational scanning", "system": "peptide, yeast cyclin D2-Cln2 system", "scale": "direction not given", "quantity": "score minus score, wild type", "result": 0}
{"note": "A few entries again (set 2):"}
{"Sequence": "CCATGGTA", "E-score": -0.139}
{"Sequence": "ATTGCGTG", "E-score": 0.00284}
{"Sequence": "CGAGAGTC", "E-score": -0.0233}
{"Sequence": "TATGAAGA", "E-score": 0.095}
{"Sequence": "AGCTCTCG", "E-score": -0.00954}
